Measured values gathered from unrelated publications.
Compare with care: the assays were run in different laboratories. “And” joins repeats or separate records; there may be more than shown. ± marks the error that the study gave.

Under “median difference in change”, Cc1cn(-c2cc(NC(=O)c3ccc(C)c(Nc4nccc(-c5cccnc5)n4)c3)cc(C(F)(F)F)c2)cn1 is recorded as 18 (item: homovanillic acid; human, cerebrospinal fluid; dose not given, between 12 and 6 months, unit not given; baseline: placebo).
For CCCCC1(CCCC)CN(c2ccccc2)c2cc(SC)c(OCC(=O)N[C@@H](C(=O)NCC(=O)O)c3ccccc3)cc2S(=O)(=O)C1, the plasma C4 was 61.5 ng/mL (item: 7α-hydroxy-4-cholesten-3-one; human, plasma; 5 mg once daily, day 13).
Cc1cc([C@H]2C[C@H]3[C@@H](C)SC(N)=N[C@@]3(c3ccc(F)cc3F)CO2)on1 has an Aβ42 level of 0.16 ng/g (item: Aβx-42; Mus musculus wild-type, brain; subcutaneous, 50 mg/kg, 5 h).
The fold change of COc1ccc(-c2cncc(N[C@@H](C)c3cccc(NC(=O)c4cncc(C)c4)c3)n2)cc1OC is reported as 1.08 (item: rno-miR-186-5p; rat SU5416/hypoxia model, lung; dose not given; baseline: SU5416/hypoxia vehicle).
Under “contraction amplitude change”, CC(C)(C)c1cc(C(C)(C)C)c(NC(=O)c2c[nH]c3ccccc3c2=O)cc1O is recorded as 3 fold (rat colon ex vivo; 10 µM, together with: β3 antagonist SR59230A; baseline: vehicle).
With CN(C)C(=O)Oc1cccc([N+](C)(C)C)c1 the train-of-four ratio was 61 (neuromuscular block reversal; rat; dose not given, 8 (unit not given), together with: cisatracurium; baseline: T1 twitch).
Under “urinary glucose excretion”, CCOc1ccc(Cc2cc([C@@H]3S[C@H](CO)[C@@H](O)[C@H](O)[C@H]3O)c(OC)cc2C)cc1 is recorded as 70.9 g/day (human; oral, dose not given, single ascending dose).
C[C@@H](Nc1cc(F)cc(F)c1)c1cc(C(=O)N(C)C)cc2c(=O)cc(N3CCOCC3)oc12 — result for “pPRAS40 H-score change”: 22.2% (immunohistochemistry, item: phospho-PRAS40; human, tumor biopsy; oral, 120 mg twice daily continuous, 408 h after first dose; baseline: baseline, direction not given).
With CC1(C)CCC2(CC1)N[C@@H](C(=O)N[C@@H]1CC[C@@H](C(N)=O)OC1)[C@H](c1ccnc(Cl)c1F)[C@]21C(=O)Nc2cc(Cl)ccc21 the non-evaluable patients was 33.3% (human, solid tumours; 60 mg/day, RECIST; baseline: patients).
Under “log2 fold change”, N#Cc1ccc2c(-c3ccncc3)c(-c3ccc(F)cc3)nn2c1 is recorded as -0.54 (kinase binding, competitor, MIB/MS competition, item: NPR1; Candida albicans cell lysate; 1 µM; baseline: DMSO).
Cn1cc(Nc2nccc(-c3ccc4c(c3)CN(C3COC3)CC[C@H]4NC(=O)c3cn(C(C)(C)C)nn3)n2)cn1 — result for “pathway activation z-score”: -0.707 (item: MIF regulation of immunity; splenic B cells, mice; 30 mg/kg, IgD-activated in vivo; baseline: vehicle, direction not given).
COc1nc(NCc2cn(-c3ccc(C(=O)Nc4ccc(F)cc4)cc3)nn2)nc(OC)n1: “maximum non-toxic concentration” 42 ± 0.97 nM (MTT; normal colonocytes, rat; 72 h).
FC(F)(F)CN1CC(n2cc(Oc3ccn4nc(Cl)cc4n3)cn2)C1 gave a reduction of 54% (item: brain C26:0 lyso-PC; Abcd1-/y mice; in feed, 100 mg/kg/day, 7 months).
CC(CCc1ccc(O)cc1)NCCc1ccc(O)c(O)c1 (stereo not shown) has a dP/dtmax change of 1290 ± 149 (anaesthetised instrumented rat; iv infusion, 1 µg/kg/min, 15 min, unit not given; baseline: baseline).
Cc1cc(Nc2ncc(Cl)c(Nc3ccccc3S(=O)(=O)C(C)C)n2)c(OC(C)C)cc1C1CCNCC1: “overall response rate” 20% (patients with advanced solid tumours; dose not given, arms 1 and 3, evaluable patients).
Under “overall response rate”, Cc1cc(C)c(CNC(=O)c2cc(Cl)c3c(c2C)O[C@@](C)([C@H]2CC[C@H](N(C)C)CC2)O3)c(=O)[nH]1 is recorded as 55% (IWG criteria, CR or PR; relapsed/refractory PTCL patients; dose not given).
NC(=O)c1cnc2[nH]ccc2c1N[C@@H]1[C@@H]2CC3C[C@H]1C[C@@](O)(C3)C2 has a percent change of -0.5% (CD4+ memory T cells, flow cytometry; Caucasian humans, peripheral blood; 60 mg single dose; baseline: baseline).
O=C(O)CNC(=O)Cc1ccccc1 has a sarcomere length of 1.72 µm (ventricular cardiomyocytes, C57BL/6 mouse; dose not given, 0.676 s).
O=C(O)/C=C/c1ccc(Cn2ccnc2)cc1 gave an inhibition of -12.6% (THP-1; pyroptotic LDH release; 2 µM, 40 min, together with: LPS then nigericin).
For Cc1cc([C@H]2C[C@H]3[C@@H](CF)SC(N)=N[C@@]3(c3ccc(F)cc3F)CO2)on1, the Aβ42 level was 0.58 ng/g (item: Aβx-42; Mus musculus wild-type, brain; subcutaneous, 30 mg/kg, 7 h).
For N.N.O=C([O-])C1(C(=O)[O-])CCC1.[Pt+2], the platinum-DNA adducts was 2.06 fg Pt/ng DNA (ICP-MS; human patient, PBMC DNA; dose not given, after compound, together with: carboplatin).
For Cc1ccc([C@@H]2O[C@H](CO)[C@@H](O)[C@H](O)[C@H]2O)cc1Cc1ccc(-c2ccc(F)cc2)s1, “change in 24-h mean serum insulin” read -3.4 µU/mL (Japanese type 2 diabetes patients; 25 mg, day 1; baseline: day 0).
Under “tumour growth inhibition”, C=CCn1c(=O)c2cnc(Nc3ccc(N4CCN(C)CC4)cc3)nc2n1-c1ccc2c(n1)[C@@](O)(CC)CC2 is recorded as 29.5% (Rh30 xenograft, BALB/c nude mice; oral, 80 mg/kg once daily x 21, day 18; baseline: vehicle).
For CCN1CCN(Cc2ccc(Nc3ncc(F)c(-c4cc(F)c5nc6n(c5c4)[C@H](C)CCC6)n3)nc2)CC1, the non-CR/non-PD was 0% (human advanced solid tumours; 300 mg, phase Ia monotherapy RECIST 1.1).
CO[C@H]1CC[C@H](N2C(=O)CNc3ncc(-c4ccc(C(C)(C)O)nc4)nc32)CC1: “pAKT change from baseline” -40.2% (flow cytometry; stimulated monocytes, human, blood; 60 mg single dose, 1.5 h, median; baseline: baseline).
For CC(C)NCC(O)c1ccc(O)c(O)c1 (stereo not shown), the sarcomere length was 1.52 µm (ventricular cardiomyocytes, C57BL/6 mouse; dose not given, 0.56 s).
COc1cc2cc(-c3ccc(CC(=O)Nc4cc(C(C)(C)C(F)(F)F)no4)cn3)cnc2cc1OC — result for “disease control rate”: 74% (human RET fusion-positive NSCLC; 75 mg, phase I, RECIST 1.1).
Under mRNA level, CSc1ccc(C(=O)/C=C/c2cc(C)c(OC(C)(C)C(=O)O)c(C)c2)cc1 is recorded as “no effect” (RT-PCR, item: PNPLA2, LPL, Apo C-II; db/db mice, MCD diet-fed, liver; 30 mg/kg; baseline: model group).
C=C1CC[C@H](OCCCNC(=O)CCOCCOCCOCCOCCOCCOCCOCCOCCOCCOCCOCCOCCOCCOCCOCCOCCOCCOCCOCCOCCOCCOCCOCCOCCOCCOCCOCCOCCOCCOCCOCCOCCOCCOCCOCCOCCNC(=O)CCN2C(=O)CC(SC[C@H](NC(=O)[C@H](CCCNC(=N)N)NC(=O)[C@@H]3CCCN3C(=O)[C@H](CCC(N)=O)NC(=O)[C@H](CC(C)C)NC(=O)[C@H](CCCCN)NC(=O)[C@H](C)NC(=O)[C@@H]3CCCN3C(=O)[C@@H]3CCCN3C(=O)[C@H](CCCCN)NC(=O)[C@H](CCCCN)NC(=O)[C@H](CO)NC(=O)[C@H](CCC(=O)O)NC(=O)[C@H](CCCCN)NC(=O)[C@H](CCCNC(=N)N)NC(=O)[C@H](CCC(N)=O)NC(=O)[C@H](CCC(N)=O)NC(=O)[C@@H](NC(=O)[C@H](CCCNC(=N)N)NC(=O)[C@H](CCC(N)=O)NC(=O)[C@H](Cc3c[nH]cn3)NC(=O)[C@H](CCC(=O)O)NC(=O)[C@@H]3CCCN3C(=O)[C@H](CO)NC(=O)[C@H](CC(C)C)NC(=O)[C@H](Cc3ccccc3)NC(=O)[C@H](CNC(=O)CCCCCCC)NC(=O)[C@H](CO)NC(=O)CN)C(C)C)C(=O)O)C2=O)C/C1=C/C=C1\CCC[C@]2(C)[C@@H]([C@H](C)CCCC(C)(C)O)CC[C@@H]12 (stereo partly shown) — result for mRNA level: “decreased” (real-time RT-PCR, item: Fbxo32; mice, LLC tumour-bearing, tibialis anterior; daily or every other day; baseline: tumour-bearing vehicle).
C[C@H]1O[C@@H](O[C@H]2CC[C@@]3(C)[C@@H](CC[C@]4(C)[C@@H]3C=C[C@]35OC[C@@]6(CCC(C)(C)C[C@H]63)[C@@H](O)C[C@]54C)[C@]2(C)CO)[C@H](O)[C@@H](O[C@@H]2O[C@H](CO)[C@@H](O)[C@H](O)[C@H]2O)[C@H]1O has an SIRT1 immunofluorescence of 35.3% and 33.9% and 47.1% (confocal immunostaining; mice, normal diet, liver; dose not given, high dose).
Under “log2 fold change”, Cc1n[nH]c2ccc(-c3cc(OC[C@@H](N)Cc4ccccc4)cnc3-c3ccoc3)cc12 is recorded as 0.0968 (kinase binding, competitor, MIB/MS competition, item: SAK1; Candida albicans cell lysate; 100 nM; baseline: DMSO).
For NCC(=O)Nc1cncc(-c2nn3c(=O)cc(N4CCNCC4)nc3s2)c1, “inhibition of platelet aggregation” read 46.3% (ADP-induced platelet aggregation, light transmission aggregometry; human stable CAD patients on aspirin, platelets ex vivo; 0.04 mg/kg, 15 min post dose, together with: 20 µM ADP; baseline: placebo difference).
Cn1cc(-c2ccc(-c3cncc(Cl)c3N3CCC4(CCNC4=O)CC3)cc2)cn1 — result for “fold change in expression”: -2.5 (COLO 205; microarray, item: OXTR; concentration not given, 2 h, gene set OTR; baseline: untreated cells).
Cc1cnc(N2CC3(CCOCC3)C2)c(C(=O)Nc2ccc(C(=O)N3CCc4cc(C(=O)Nc5c(C)cccc5F)sc4-c4ccccc43)cc2)c1: “inhibition of HMGB1 AUC” 4% (human, RSV infection, nasal wash; dose not given, ITT-IS population; baseline: placebo).
For CN[C@@H]1COc2c(S(=O)(=O)NC(=O)Nc3c4c(cc5c3CCC5)CCC4)cnn2C1, the inhibition was 72.1% (item: IL-1β; human participants, whole blood ex vivo; 1800 mg single dose, 48 h, together with: LPS/ATP; baseline: baseline).
CC[C@@H](C)[C@@H](NC(=O)[C@@H](Cc1ccc(O)cc1)NC(=O)[C@H]1CCCN1C(=O)[C@@H](CCCNC(=N)N)NC(=O)[C@H](N)Cc1c[nH]cn1)C(=O)N[C@H](C)C(=O)N[C@H](Cc1c[nH]cn1)C(=O)N[C@H](CCCNC(=N)N)C(=O)N[C@@H](C(=O)N[C@H](Cc1ccc(O)cc1)C(=O)N[C@H](CO)C(=O)N[C@H](Cc1ccccc1)C(N)=O)C(C)C — result for “IFN-γ+ CD8+ T cell frequency”: 8.63% and 6.31% and 7.33% and 6.26% and 4.61% (ex vivo flow cytometry; B16 tumour-bearing mice, spleen; dose not given).
For N#Cc1ccn2c(-c3ccncc3)c(-c3ccc(F)cc3)nc2c1, “log2 fold change” read 0.348 (kinase binding, competitor, MIB/MS competition, item: CKA2; Candida albicans cell lysate; 10 µM; baseline: DMSO).
For COc1ccc2nc(-c3cc(N(C)C)ccn3)c(N(C)c3ccc(F)cc3)n2c1, the IC50 was 1390 nM and 1780 nM (Leishmania infantum; macrophages, MHOM/MA(BE)/67/ITMAP263, amastigote).
Nc1ncnc2c1ncn2[C@H]1C[C@H](O)[C@@H](COP(=O)(O)O)O1 gave an inhibition of -2.48% (THP-1; pyroptotic LDH release; 2 µM, 40 min, together with: LPS then nigericin).
For C[C@H]1C[C@H]2CSC(N)=N[C@@]2(c2nc(NC(=O)c3ccc(OC(F)F)cn3)cs2)CO1, “percent change from baseline” read -64% (item: total Aβ; healthy adults, plasma; 275 mg once daily, day 1; baseline: placebo).
CC(C)S(=O)(=O)c1ccc2nccc(Nc3ccc4scnc4c3)c2c1: necroptosis inhibition “inhibited” (SYTOX Green IncuCyte imaging; 3T3SA, mouse; 10 µM, together with: TNF plus zVAD).
Cc1cc(F)cc2c(CCC(=O)N[C@@H]3C(=O)NC[C@H]3O)c(-c3ccc(F)cc3)[nH]c12: “urine albumin/creatinine ratio” 1230 µg/mg and 1510 µg/mg and 6310 µg/mg and 968 µg/mg and 2720 µg/mg (APOL1 G2 mice, IFNγ-induced; 30 mg/kg twice daily, day 8).
c1ccc(-c2n[nH]cc2-c2ccnc3ccccc23)nc1 — result for “log2 fold change”: 0.864 (kinase binding, competitor, MIB/MS competition, item: NIK1; Candida albicans cell lysate; 1 µM; baseline: DMSO).
